{"data": "Results from different studies", "note": "Compare with care: the assays were run in different laboratories."}
{"SMILES": "O=C(c1ccc(F)c(F)c1Nc1ccc(I)cc1F)N1CC(O)([C@@H]2CCCCN2)C1", "system": "human patients", "conditions": "oral, dose not given, dose escalation, tablet", "measurement": "patients with SAE leading to withdrawal", "result": "0%"}
{"SMILES": "COc1ncnn2ccc(-c3cnc4nc(C)n(Cc5nnc([C@@H](C)F)o5)c4c3)c12", "system": "human", "conditions": "oral, dose not given, grade 4", "measurement": "patients with taste disorder", "result": "0%"}
{"SMILES": "Cc1cn([C@H]2O[C@@H](CO[P@@](=O)(N[C@@H](C)C(=O)OC(C)C)Oc3ccccc3)[C@H](O)[C@H]2F)c(=O)[nH]c1=O", "assay": "item: Nausea", "system": "human", "conditions": "10 mg", "measurement": "patients with TEAE", "result": "0%"}
{"SMILES": "CCS(=O)(=O)Nc1ccc(Oc2ccc(F)cc2F)c(-c2cn(C)c(=O)c3[nH]ccc23)c1", "assay": "item: Sepsis", "system": "human, relapsed/refractory AML", "conditions": "oral, dose not given, trial, together with: alone or with venetoclax", "measurement": "patients with fatal adverse event", "result": "5%"}
{"SMILES": "CCN(CCO)CCCC(C)Nc1ccnc2cc(Cl)ccc12 (centres unmarked)", "system": "human, newly diagnosed glioblastoma", "conditions": "oral, 400 mg/dose, maculopapular rash grade 2, with RT and TMZ", "measurement": "patients with adverse event", "result": "14%"}
{"SMILES": "C[C@@H]1OC(=O)NN=C1c1ccc(-c2ccc(F)cc2)c(C(F)(F)F)c1", "assay": "phase I trial, item: abdominal distension worst grade 1", "system": "human patients", "conditions": "10 mg loading then 0.5 mg daily", "measurement": "patients with adverse event", "result": "0%"}
{"SMILES": "C=CC(=O)Nc1cc(Nc2nccc(Nc3cc(Cl)c(F)cc3C(C)(C)O)n2)c(OC)cc1N1CC[C@@H](N(C)C)C1", "system": "human patients", "conditions": "oral, 100 mg, treatment-emergent adverse events", "measurement": "patients with diarrhoea", "result": "11.1%"}
{"SMILES": "C[C@]1(O)C[C@@](N)(c2ccc(-c3nc4n(c3-c3ccccc3)COc3ccncc3-4)cc2)C1", "system": "human, advanced or metastatic solid tumours", "conditions": "28 mg intermittent, phase I dose escalation", "measurement": "patients with decreased appetite", "result": "66.7%"}
{"note": "Repeated from above:"}
{"SMILES": "C=CC(=O)Nc1cc(Nc2nccc(Nc3cc(Cl)c(F)cc3C(C)(C)O)n2)c(OC)cc1N1CC[C@@H](N(C)C)C1", "system": "human patients", "conditions": "oral, 100 mg, treatment-emergent adverse events", "measurement": "patients with diarrhoea", "result": "11.1%"}
